Results gathered from unrelated publications.
Numbered parts are unrelated; each lists some results of a single study. Changes are numbered by the printed parent chain.

Study 1
Molecule: PhoQ, residues 284 288 289 292 302 303 TNASYF
Method: Sort-seq
Item: YFP reporter
Medium: E. coli
Setting: PhoQ-PhoP variant library
With: 10 µM Mg2+
Relative to: high Mg2+ state
Reading: higher = stronger signaling
The fold induction was 11.1 (PhoP, residues 12 14 15 18 19 TQALL (Escherichia coli, UniProt P23836)).
For PhoP, residues 12 14 15 18 19 QYFSL (Escherichia coli, UniProt P23836): fold induction read 13.9.
It gave 1.71 for fold induction (PhoP, residues 12 14 15 18 19 NYFRM (Escherichia coli, UniProt P23836)).

Study 2
Target: Fragile X messenger ribonucleoprotein 1, C-terminal low-complexity region (Fmr1, Mus musculus, UniProt P35922)
Method: RNA Bind-n-Seq
Form: RNA
Medium: in vitro
Tested at: 200 nM
Setting: whole 134-nt RNA, ends assumed
With: 150 mM KCl
Relative to: input library
Reading: higher = stronger binding
Shared flanks, not repeated: GGGAGUUCUACAGUCCGACGAUC … UGGAAUUCUCGGGUGUCAAGG
For `AGUCCUGUGCUACACAUCGUAUGUACCGAAUCGGCCCCGGGGCCCCGGGCCCCGGGGAAAGUAUUAUGUUACGCCGUUCGGAUCUGCACU`, the log2 enrichment was -0.89.
`CAAGUCCUGUGCUACACAUCGUAUGUACCGAAUCGGGGAAAGGAAAGGAAAGGGGAAAGUAUUAUGUUACGCCGUUCGGAUCUGCACUUC` has a log2 enrichment of -0.2.
The log2 enrichment of `UCCUGUGCUACACAUCGUAUGUACCGAAUCGGGAAAAAAAGGGAAAAAGGGUUUUUGGGAAAGUAUUAUGUUACGCCGUUCGGAUCUGCA` is reported as -0.21.
`GUCCUGUGCUACACAUCGUAUGUACCGAAUCGGGGUUUUUGGGGAAAAAGGGGUGGGGAAAGUAUUAUGUUACGCCGUUCGGAUCUGCAC` gave a log2 enrichment of 0.644.
The log2 enrichment of `CCUGUGCUACACAUCGUAUGUACCGAAUCGGAAAAAAAGGGAAAAAAAGGGAAAAAAAGGAAAGUAUUAUGUUACGCCGUUCGGAUCUGC` is reported as -0.854.
`CACAGACAACACGCACCCACACAGACACAGAGGGAAGGGGUUGGGAUGGGGACAGGGUGCACAGCAGGGCGCGGUAGGACCCCAGCCCCU` has a log2 enrichment of 1.01.
`UUGGAGGUGGAUUUUGUUUAUUUUUUUAGCUCAUUUCCAGGGGUGGGAAUUUUUUUUUAAUAUGUGUCAUGAAUAAAGUUGUUUUUGAAA` has a log2 enrichment of -0.579.

Study 3
Target: CCNB3, cyclin fold, Cln2 fusion (human)
Method: yeast growth competition, sequencing
Medium: yeast
Setting: weak parent motif
Relative to: not given
Reading: higher = stronger binding
Starting sequence: MICAL3 docking peptide (human); LQLRRQLSFSEDS; partner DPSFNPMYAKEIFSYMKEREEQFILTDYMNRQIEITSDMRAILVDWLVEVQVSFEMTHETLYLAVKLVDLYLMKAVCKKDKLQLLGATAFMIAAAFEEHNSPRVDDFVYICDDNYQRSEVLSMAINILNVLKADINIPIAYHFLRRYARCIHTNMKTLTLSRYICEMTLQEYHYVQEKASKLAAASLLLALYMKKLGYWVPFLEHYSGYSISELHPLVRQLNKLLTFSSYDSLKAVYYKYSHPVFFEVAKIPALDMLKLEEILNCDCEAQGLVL
`E11D`: “normalised enrichment score” -0.0341.
Under “normalised enrichment score”, `D12C` is recorded as 0.224.
`R5Q` — result for “normalised enrichment score”: -0.0606.
For `Q2G`, “normalised enrichment score” read -0.0949.
`E11K` — result for “normalised enrichment score”: 0.515.

Study 4
Target: Sal-like protein 4, full length isoform A (SALL4, Homo sapiens, UniProt Q9UJQ4, residues 1-1053)
Sequence of UniProt Q9UJQ4 (whole entry, looked up): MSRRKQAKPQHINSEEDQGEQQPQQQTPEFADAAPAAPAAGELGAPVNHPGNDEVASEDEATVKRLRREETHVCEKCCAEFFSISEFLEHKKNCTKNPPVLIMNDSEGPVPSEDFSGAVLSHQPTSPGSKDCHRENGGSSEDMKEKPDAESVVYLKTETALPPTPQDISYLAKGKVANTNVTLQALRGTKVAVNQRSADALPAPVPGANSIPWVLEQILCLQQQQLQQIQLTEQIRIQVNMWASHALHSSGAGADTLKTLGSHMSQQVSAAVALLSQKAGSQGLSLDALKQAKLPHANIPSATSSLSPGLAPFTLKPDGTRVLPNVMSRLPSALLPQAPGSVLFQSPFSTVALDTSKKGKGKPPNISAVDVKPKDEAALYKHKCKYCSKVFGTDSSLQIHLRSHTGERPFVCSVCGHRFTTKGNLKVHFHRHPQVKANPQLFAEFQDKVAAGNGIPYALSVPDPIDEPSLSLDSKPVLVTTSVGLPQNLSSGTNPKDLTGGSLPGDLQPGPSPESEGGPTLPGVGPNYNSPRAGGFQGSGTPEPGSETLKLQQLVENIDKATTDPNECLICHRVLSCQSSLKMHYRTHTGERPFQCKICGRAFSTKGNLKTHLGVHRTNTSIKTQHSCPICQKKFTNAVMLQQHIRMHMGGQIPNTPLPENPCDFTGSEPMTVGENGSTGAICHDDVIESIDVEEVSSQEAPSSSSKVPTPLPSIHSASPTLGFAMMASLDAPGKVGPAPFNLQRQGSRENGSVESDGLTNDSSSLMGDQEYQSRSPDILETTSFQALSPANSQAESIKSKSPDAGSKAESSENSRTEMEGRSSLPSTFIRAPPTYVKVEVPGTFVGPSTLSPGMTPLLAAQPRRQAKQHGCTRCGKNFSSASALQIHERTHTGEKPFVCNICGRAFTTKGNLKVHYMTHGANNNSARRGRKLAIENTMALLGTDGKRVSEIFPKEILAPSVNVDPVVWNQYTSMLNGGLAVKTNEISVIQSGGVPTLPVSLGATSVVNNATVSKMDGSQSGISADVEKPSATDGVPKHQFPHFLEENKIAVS
Method: universal PBM
Form: double-stranded DNA, one strand shown
Medium: in vitro
Tested at: 600 nM
Setting: 8-mer, flanks averaged, mean of replicates
Reading: higher = stronger binding
`CACCCGGA` has an E-score of -0.232.
With `AGAGGACA` the E-score was -0.0351.
`ACTCATGG` gave an E-score of 0.148.
With `AAGCCCTT` the E-score was -0.121.
`AGCGCGAC` gave an E-score of -0.208.
`AAAAAGAA` has an E-score of 0.205.
For `AGTTAAAT`, the E-score was 0.269.
The E-score of `CCAGGACG` is reported as -0.23.
The E-score of `GTATTGTA` is reported as 0.266.
`TTCTGCAA` has an E-score of 0.183.
The E-score of `GCTGAACC` is reported as -0.279.
`AGTATACG` gave an E-score of 0.17.
